Experimental data collected from several papers.
Every numbered part comes from another study and shows a few of its results, in no order. Changes are numbered by the printed parent chain.

Series 1 — method: RNA Bind-n-Seq; form: RNA; sample: in vitro; tested at: 20 nM; notes: 6-mer, flanks averaged, single round; added: 150 mM LiCl; reference: input library; reading: higher = stronger binding
Target: TAR DNA-binding protein 43, full length, His tag (TARDBP, Homo sapiens, UniProt Q13148, residues 1-414)
Sequence | 6-mer enrichment (R)
CCCGGA | 0.918
GUCGCA | 0.927
GUAUCC | 0.896
UUAAAU | 1
AAAACA | 0.844
GGGUAA | 1.05
GUUUUC | 1.12
CCGUGU | 1.08
GUGAGU | 1.5
GCCCAA | 0.953
CUAGAU | 0.819
GGAUCA | 0.899
ACCAGA | 0.82
UUCACC | 0.95
CCCCCC | 1.66
GUGCUG | 1.14
AACUUA | 0.879
UAUAGU | 1.02
UGUUUA | 1.28

Series 2 — target: CCNB2, cyclin fold, Cln2 fusion (human); method: yeast growth competition, sequencing; sample: yeast; notes: weak parent motif; reference: not given; reading: higher = stronger binding
Starting sequence: PKN2 docking peptide (human); VSAVRKLDFSDTM; partner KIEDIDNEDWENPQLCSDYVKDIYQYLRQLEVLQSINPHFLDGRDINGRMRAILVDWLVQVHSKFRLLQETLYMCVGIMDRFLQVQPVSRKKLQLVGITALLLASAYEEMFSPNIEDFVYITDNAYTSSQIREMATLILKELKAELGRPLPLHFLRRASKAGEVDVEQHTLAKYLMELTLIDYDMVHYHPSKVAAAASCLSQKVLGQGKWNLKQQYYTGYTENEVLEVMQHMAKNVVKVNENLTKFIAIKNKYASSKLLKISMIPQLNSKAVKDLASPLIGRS
Change | normalised enrichment score
VSRVRKLDFSDTM [A3R] | 0.51
VCAVRKLDFSDTM [S2C] | 0.53
VSAVPKLDFSDTM [R5P] | -0.212
VSLVRKLDFSDTM [A3L] | 2.32
VSAVRKLDFWDTM [S10W] | 0.174
VSAVRKLDFADTM [S10A] | 0.663
VSAVRKLDMSDTM [F9M] | 0.222
VSWVRKLDFSDTM [A3W] | 0.975
VSAVRKLNFSDTM [D8N] | 0.298
VSAVRKLDVSDTM [F9V] | 0.21
VSAVHKLDFSDTM [R5H] | -0.292
VSAERKLDFSDTM [V4E] | -0.335
VSAVRKPDFSDTM [L7P] | -0.0262

Series 3 — method: RNA Bind-n-Seq; form: RNA; sample: in vitro; tested at: not given; reference: input RNA pool; reading: higher = stronger binding
Target: RING finger protein unkempt homolog, zinc fingers 1-6, GST-SBP tag (UNK, Homo sapiens, UniProt Q9C0B0, residues 30-357)
Notes: RNA with constant flanks, human and mouse sites, ends assumed
All sequences stand within: GGGAGUUCUACAGUCCGACGAUC … CAACAGAGGAUUGAGCAUCA
Target sequence (chain): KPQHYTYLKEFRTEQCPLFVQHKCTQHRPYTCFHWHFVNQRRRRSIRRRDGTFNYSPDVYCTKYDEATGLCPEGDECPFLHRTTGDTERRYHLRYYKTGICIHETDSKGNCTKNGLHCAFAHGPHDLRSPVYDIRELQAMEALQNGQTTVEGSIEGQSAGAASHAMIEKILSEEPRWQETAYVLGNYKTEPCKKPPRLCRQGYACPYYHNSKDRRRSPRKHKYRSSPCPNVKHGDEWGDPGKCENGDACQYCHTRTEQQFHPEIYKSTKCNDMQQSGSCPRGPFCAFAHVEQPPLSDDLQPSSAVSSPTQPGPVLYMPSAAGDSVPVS
Sequence | bound/input enrichment
UUGAAAACUGAUUCAAGUAAGUUUGAGUAUCACAAUGUUAGCUUUCUAAUUCCAUAAAAGUACUUGGUUUUUACAGUUUAUAAUCUGACAUCACCCCAGCGCCAUUUGUAAAGAGCAACU | 0.555 ratio
GUGUGGACAGCUGACAAAUUUAAUCCUUUGUAAUACUUUCUUUGUGACAUUUCUCUUCCCCUUAGAAACAUUGCACAUUUUAACUCUAGGCAUGGCCUCUUCUGGUGUUGACUGGACUUG | 2.24 ratio
GAAUCCUACUCAGGCGGAUUUUGCAACACCAAGCUCACAGCAGCAGCAUCUUAGUCACAGUAGGGUAGUUUUGGGGCUCUGUGGCCAGGGUUUUAUUCACAUGCAGGUUUGGAAAAUGUA | 1.5 ratio
CAGAUCCAUAGGGAUUUGAAAGCUGGAAAUAUUCUUCUGGGUGAGGAUGGCUCAGUACAAAUAGCAGAUUUUGGAGUAAGCGCAUUCUUAGCCACAGGGGGUGAUGUUACACGGAAUAAA | 0.415 ratio
AGGUUUCCGGUUCCGGUGUAACGUUCGGGCUCCGUCUCAGGGGCUGAAGUUUGUGAGGUGUAGUAUUGAGUCCUGUUUGAGCUAUUGUUCUCUUUUUCCUGAAAAAUGGCACUGUCAAAG | 0.219 ratio
AUAUUGAAACAGUCUGCAGAUUUCCUAGCCAUAAAUAAACUUCUAAAGUACUCAUGGUUUUUCUUUGAAAUAAUUGCAAAGUCGAUGGCCACAUACUUAUUGGAAGAGAAUAAAAUUAAG | 0.208 ratio
GGCUCUUGCCCUUUUCAGGAUAUGAGACUAGACUCUGCCGUGCCUCCUUUUAAUAUCUCAUUAAAAAGCAUUUGUCAAUUUCUCUGCCUCCCAGCCGACAACACAAAAUUAUUUUCCAAC | 0.489 ratio
UUAUUAUAGCUUUGAAAUAAAAAAUCGUGAGGGAAAAAAAAUCCAAUGAUUGUACUGUGGUUAGGAGUUUUAUUACCAAGACAUUUAUGUCACUUUUCUUUCCCUUGUCAUUUUGAGGGG | 3.53 ratio
ACCUUGGACGCCGCAAGAGAAGCUGUCAAGCCCCGCAGGCUCUGAUUCGGCGCCCUCCGCGUUCCUCGGCUGCUCCCGGCUUCCCUGUGCCUCGGUGGAGUAUUUGCGUUCGGGGCUGGG | 0.057 ratio
CCAUGUUCUAAAGUCAUCGUUCGGUUCUUAACCGUGAUGAUGAAGCACGGAUACAUUGGUGAAUUUGAGAUCAUUGAUGAUCACAGAGCUGGGAAGAUUGUUGUGAACCUCACAGGAAGG | 0.226 ratio
UCCACCGGGGAUGCGGCUCGUCAGGGGGUGUACGAGAACUUCCGGCGGGAGCUGGAGAUGAGCACCACCAACAGCGAGAGCCUGGAGGAGGCCGGCUCGGCGCACAGCGAUGAGCAGAGC | 0.112 ratio

Single results of other studies
Substance | target | test | system | setting | scale | measurement | result
PhoQ, residues 284 288 289 292 302 303 SLCLSL | PhoP, residues 12 14 15 18 19 IQFRS (Escherichia coli, UniProt P23836) | Sort-seq, item: YFP reporter | E. coli | PhoQ-PhoP variant library, added: 10 µM Mg2+ | reference: high Mg2+ state, higher = stronger signaling | fold induction | 1.71

A few entries again (series 1):
Sequence | 6-mer enrichment (R)
UUAAAU | 1
GUGCUG | 1.14
GUAUCC | 0.896
GGGUAA | 1.05
ACCAGA | 0.82
CCGUGU | 1.08
